Measurements pooled from the literature.
Each line is one published result; not all experiments were run side by side. ± gives the spread as reported. Values after ≈ are worked out from the molar mass of the structure shown.
Organism: Mycobacterium tuberculosis

c1ccc(-c2nc3cc(Nc4nccn4-c4cc(NC5CCCC5)ncn4)ccc3[nH]2)cc1
MIC50 (W4; 120 h): 0.06 µM (≈ 0.0262 µg/mL)

Cc1ccc(OCCc2ccc(Br)cc2)c(C(N)=O)c1
IC90 (growth; H37Rv-LP; 120 h): 0.55 ± 0.22 µM

CN1CCN(c2ccc(Nc3nccc(-c4cccc([N+](=O)[O-])c4)n3)cc2C(F)(F)F)CC1
MIC (H37Rv auxotrophic strain): 26.4 µg/mL

Nc1cccc(F)c1C(=O)NNc1ccc(F)cc1
MIC99 (H37Rv; 336 h): 1.56 to 2.84 µM (≈ 0.411 to 0.748 µg/mL)

O=c1c2cc(Cl)ccc2[nH]c(=S)n1Cc1ccccc1
MIC90 (PptT conditional knockdown): > 100 µM

COc1ccc(-c2cc(C(F)(F)F)c3c(N)c(C(=O)NCC45CC6CC(CC(C6)C4)C5)sc3n2)cc1
selectivity index (H37Rv wild type; baseline: HepG2 IC50 over M. tuberculosis IC90): > 71

CN1CCN(c2ccc(Nc3nccc(-c4ccnc(NCc5ccccc5)c4)n3)cc2C(F)(F)F)CC1
MIC (H37Rv auxotrophic strain): > 60.8 µg/mL

Cc1ccc(NCCc2cccc(F)c2)c(C(N)=O)c1
IC90 (growth; H37Rv-LP; 120 h): 59 ± 5 µM

Cc1nc2ccc(CN(C)c3ccc(C(=O)N[C@@H](CCC(=O)O)C(=O)O)s3)cc2c(=O)[nH]1
MIC90 (bacterial growth, inhibitor; H37Rv pptT conditional knockdown; PptT depleted, ATc withheld): > 100 µM

COc1cccc(-c2cc(C(F)(F)F)c3c(N)c(C(=O)Nc4cccc(C)c4C)sc3n2)c1
IC50 (growth inhibition; H37Rv LepB under-expressing): 1.5 ± 1 µM

C[C@H]1CC[C@H](NC(=O)CNc2ccc(Cl)cc2)CC1
activity (H37Rv mc2 6206; concentration not given, 168 h): inactive

Cc1ccc(NC(=O)c2ccccc2)cc1Nc1nccn1-c1cc(NC2CCCC2)ncn1
MIC50 (W4; 120 h): 0.07 µM (≈ 0.0317 µg/mL)

CN1CCN(c2ccc(Nc3nccc(-c4ccc(Cl)cc4)n3)cc2C(F)(F)F)CC1
MIC (H37Rv auxotrophic strain): 11.2 µg/mL

COc1ccc(CCOc2ccc(-c3ccsc3)cc2C(N)=O)cc1F
selectivity index (H37Rv-LP; baseline: HepG2 CC50 over Mtb IC90): 75

O=c1c2nc(Cl)ccc2[nH]c(=S)n1Cc1cccnc1
MIC90 (PptT conditional knockdown): 3.9 µM

[H]/N=C(/N)N[C@H]1[C@H](O)[C@@H](O)[C@H](O[C@@H]2O[C@@H](C)[C@](O)(C=O)[C@H]2O[C@@H]2O[C@@H](CO)[C@H](O)[C@@H](O)[C@@H]2NC)[C@@H](N/C(N)=N\[H])[C@@H]1O
kill rate (time-kill; H37Rv; concentration not given, 7 days): 0.17 h⁻¹

Cc1ncc([N+](=O)[O-])n1CCO
activity (H37Rv; 10 µg/mL): active

CC(=O)OCc1cc2[nH]c(=O)n(Cc3cccnc3)c(=O)c2cc1Cl
MIC90 (PptT conditional knockdown): 1 µM

O=C(NC1CC1)c1cc(-c2ccoc2)ccc1OCCc1cccc(F)c1
IC90 (growth; H37Rv-LP; 120 h): 4 ± 3.2 µM

Nc1cccc(F)c1C(=O)NNc1cccc(F)c1
MIC99 (H37Rv; 336 h): 1.56 to 2.84 µM (≈ 0.411 to 0.748 µg/mL)

NCC[C@H](O)C(=O)N[C@@H]1C[C@H](N)[C@@H](O[C@H]2O[C@H](CN)[C@@H](O)[C@H](O)[C@H]2O)[C@H](O)[C@H]1O[C@H]1O[C@H](CO)[C@@H](O)[C@H](N)[C@H]1O
MIC80 (resazurin reduction; H37Rv mc2-6206 wild type): 0.85 µM (≈ 0.498 µg/mL)

COC(=O)C(=O)[C@H](C[C@@H]1CCNC1=O)NC(=O)[C@H](CCCCN)NC(=O)[C@H](Cc1ccccc1)NC(=O)OCc1ccccc1
IC50 (bacterial growth; THP-1 macrophages, Mtb-lux; 24 h): 19.3 ± 7.2 µM

NNC(=O)c1ccncc1
IC80 (THP-1 macrophages, H37Rv-GFP; 96 h): 0.12 µM

CCNC(=O)c1sc(C)nc1OCCc1cc(F)cc(F)c1
IC90 (growth; H37Rv-LP; 120 h): 29 ± 8 µM

CCN(CC)C(=O)c1sc2ncccc2c1N
IC50 (growth inhibition; H37Rv LepB under-expressing): > 100 µM

O=c1c2cc(Cl)ccc2[nH]c(=S)n1Cc1cccnc1
MIC90 (PptT conditional knockdown): 0.3 µM

Nc1cccc(F)c1C(=O)NNc1ccc(Cl)cc1
MIC99 (H37Rv; 336 h): 1.56 to 2.84 µM (≈ 0.436 to 0.794 µg/mL)

CN1CCN(c2ccc(Nc3nccc(-c4ccc5ccccc5c4)n3)cc2C(F)(F)F)CC1
MIC (H37Rv auxotroph): 12.5 µM

CC(c1cccnc1)n1c(=S)[nH]c2ccc(Cl)cc2c1=O (stereo not drawn)
MIC90 (PptT conditional knockdown): 7.92 µM

Cc1c(-c2ccc(N3CCCCC3)cc2)[nH]c2ccccc2c1=O
IC50 (bacterial growth; H37Rv; Wayne model, oxygen-limited): 3.9 ± 0.52 µM

Cn1c(SCc2ccc(Cl)cc2)nnc1-c1cncc(C#Cc2ccccc2)c1
IC50 (bacterial growth; Erdman wild type): 4 µM

CN1CCN(c2ccc(Nc3nccc(-c4cccnc4)n3)cc2C(F)(F)F)CC1
MIC (H37Ra ATCC 25177; median): 51 µg/mL

Cc1nc(OCCc2cc(F)cc(F)c2)c(C(N)=O)s1
IC90 (growth; H37Rv-LP; 120 h): 37 ± 11 µM

COc1ccc(-c2cc(C(F)(F)F)c3c(N)c(C(=O)N4CCCC4(C)C)sc3n2)cc1
IC50 (growth inhibition; H37Rv LepB under-expressing): > 100 µM

Cc1ccc(OCCc2ccc(C3CC3)cc2)c(C(N)=O)c1
IC90 (growth; H37Rv-LP; 120 h): 0.41 ± 0.31 µM

O=C(NC12CC3CC(CC(C3)C1)C2)c1cc(-c2ccc(F)nc2F)c[nH]1
lung CFU log reduction (H37Rv, mice; oral, 100 mg/kg, 504 h; baseline: untreated): ~1 log CFU

O=c1c2cc(Cl)ccc2[nH]c(=S)n1Cc1ccc(-c2cscn2)nc1
MIC90 (PptT conditional knockdown): 1.47 µM

Cc1cccc(NC(=O)c2sc3nc(-c4ccccc4)cc(C(F)(F)F)c3c2N)c1C
IC50 (growth inhibition; H37Rv LepB under-expressing): > 100 µM

O=C(OCc1cc2[nH]c(=S)n(Cc3cncnc3)c(=O)c2cc1Cl)Oc1ccccc1
MIC90 (PptT conditional knockdown): 0.33 µM

COc1ccc(-c2cc(C(F)(F)F)c3c(N)c(C(=O)N4CC(OC)C4)sc3n2)cc1
IC90 (H37Rv wild type; 120 h): inactive

NC(=O)c1cc(Br)ccc1OCCc1cccc(F)c1
selectivity index (H37Rv-LP; baseline: HepG2 CC50 over Mtb IC90): > 18

COc1ccc(-c2cc(C(F)(F)F)c3c(N)c(C(=O)NC45CC6CC(CC(C6)C4)C5)sc3n2)cc1
IC50 (growth inhibition; H37Rv LepB under-expressing): 0.33 ± 0.09 µM

CCCCCCC#Cc1cncc(-c2nnc(SCc3cc([N+](=O)[O-])cc([N+](=O)[O-])c3)n2C)c1
MIC80 (resazurin reduction; H37Rv mc2-6206 wild type): 2.2 µM (≈ 1.06 µg/mL)

COc1ccc(-c2cc(C(F)(F)F)c3c(N)c(C(=O)N4C5CCCC4COC5)sc3n2)cc1
IC90 (H37Rv wild type; 120 h): inactive

CO[C@H]1[C@H](O[C@H]([C@H]2O[C@@H](n3ccc(=O)[nH]c3=O)[C@H](O)[C@@H]2O)[C@H](NCCCNC(=O)[C@@H](NC(=O)[C@@H](NC(=O)N[C@H](C(=O)O)C(C)C)[C@@H]2CCN=C(N)N2)[C@@H](OC(=O)CCCCCCCCCCCCN(O)C(=N)N)C(C)C)C(=O)O)O[C@H](CN)[C@H]1O
MIC90 (microplate alamar blue; H37Rv): 0.08 ± 0.004 µg/mL

Excerpt of the above:
COc1cccc(-c2cc(C(F)(F)F)c3c(N)c(C(=O)Nc4cccc(C)c4C)sc3n2)c1
IC50 (growth inhibition; H37Rv LepB under-expressing): 1.5 ± 1 µM

CCCCCCC#Cc1cncc(-c2nnc(SCc3cc([N+](=O)[O-])cc([N+](=O)[O-])c3)n2C)c1
MIC80 (resazurin reduction; H37Rv mc2-6206 wild type): 2.2 µM (≈ 1.06 µg/mL)

C[C@H]1CC[C@H](NC(=O)CNc2ccc(Cl)cc2)CC1
activity (H37Rv mc2 6206; concentration not given, 168 h): inactive

NCC[C@H](O)C(=O)N[C@@H]1C[C@H](N)[C@@H](O[C@H]2O[C@H](CN)[C@@H](O)[C@H](O)[C@H]2O)[C@H](O)[C@H]1O[C@H]1O[C@H](CO)[C@@H](O)[C@H](N)[C@H]1O
MIC80 (resazurin reduction; H37Rv mc2-6206 wild type): 0.85 µM (≈ 0.498 µg/mL)

Cn1c(SCc2ccc(Cl)cc2)nnc1-c1cncc(C#Cc2ccccc2)c1
IC50 (bacterial growth; Erdman wild type): 4 µM

O=c1c2nc(Cl)ccc2[nH]c(=S)n1Cc1cccnc1
MIC90 (PptT conditional knockdown): 3.9 µM

COc1ccc(-c2cc(C(F)(F)F)c3c(N)c(C(=O)N4CCCC4(C)C)sc3n2)cc1
IC50 (growth inhibition; H37Rv LepB under-expressing): > 100 µM
